# Measured values collected from several papers.
# Parts stem from different laboratories: compare values within a part only.

# Block 1
# Target: Histone acetyltransferase KAT6A, winged helix 2, GST fusion (KAT6A, Homo sapiens, UniProt Q92794, residues 85-181)
# Technique: protein binding microarray
# Form: double-stranded DNA, one strand shown
# Medium: in vitro
# Tested at: not given
# Setting: 8-mer, flanks averaged, mean of 2 arrays, mostly near background
# Relative to: not given
# Direction: higher = stronger binding
# Residues (chain): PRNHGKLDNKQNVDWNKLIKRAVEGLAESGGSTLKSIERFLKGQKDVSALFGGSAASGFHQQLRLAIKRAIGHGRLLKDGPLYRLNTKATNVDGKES
Oligonucleotide,E-score
ACGCGGAA,0.0053
CGGCGGAC,0.222
GGCGGTCA,0.131
CAGTTAGA,0.129
GGGGTACA,-0.0438
TACACTGA,-0.0722
GCGGAACC,0.0714
CCATCACA,0.0469
ACGAGCGC,-0.0429
CTTGATTC,-0.00876
AATGTTAG,-0.243
CAAAACCC,0.0336
GAACATTA,-0.116
GGCCTACC,-0.0868
TCTCTTAA,-0.0513
CCTATCCG,-0.149
AGGTTTTC,-0.0127
AAAAGAAG,0.0949
ATAGATCA,0.0459
AGGGCCTC,-0.134

# Block 2
# Target: RNA binding protein fox-1 homolog 2, RRM domain, GST-SBP tag (RBFOX2, Homo sapiens, UniProt O43251-10, residues 100-194)
# Technique: RNA Bind-n-Seq
# Form: RNA
# Medium: in vitro
# Tested at: 365 nM
# Setting: natural RNA segment, single round, ends assumed
# Relative to: no-protein control
# Direction: higher = stronger binding
# Residues (chain): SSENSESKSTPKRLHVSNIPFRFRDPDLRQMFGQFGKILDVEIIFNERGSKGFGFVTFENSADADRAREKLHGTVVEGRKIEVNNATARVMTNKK
Oligonucleotide,RBNS enrichment (R)
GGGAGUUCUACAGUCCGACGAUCUCUGCUGCCUCUCAGCCUCUGCUGGGGCUUCCAGCUGGGUACAUGGCUGCUUGGCCGUUUGGGGCGGUUCUUCCUCCUAGGUUCUGCAAUCCAGGCUCCAGCACCCCUCUUGGAAUUCUCGGGUGCCAA,0.391
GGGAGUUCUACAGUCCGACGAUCAGAUGCCCCAGAGCUGUUUAUGGCCUCAGCUGCCUCACUUCCUACAAGAGCAGCCUGUGGCAUCUUUGCCUUGGGCUGCUCCUCAUGGUGGGUUCAGGGGACUCAGCCCUUGGAAUUCUCGGGUGCCAA,0.217
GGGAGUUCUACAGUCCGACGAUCAAGCAAGUACUGCAUUUCCUAUGCAACAAAAAAAGGAAAAAUAAAAAAAAAAUUGCUAAUGCUACGGAAGCCGUGUCCUCUUUUGCUGUGUACACAAUGCCUGGGGUGAGUGGAAUUCUCGGGUGCCAA,2.45
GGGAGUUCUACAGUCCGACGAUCUUGAGAAAUGGAAAUGCCACCUCAACUUAAAUAAUCACAGUUGGUCAUUUAUGCCCACUUUAAAAUGUAGGGAGUCUGUUUCGGCCCCUUUUCUGGAGUAUAUUUGUACCUGGAAUUCUCGGGUGCCAA,0.339
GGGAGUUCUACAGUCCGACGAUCUUUUUUAGGAAAACAAAAAUGAAAAACUACUCCAUUUGAGGAUUGUAAUUCCCACCCCUCUUGCUUCUUCCCCACCUCACCAUCUCCCAGACCCUCUUCCCUUUGCCCUUUGGAAUUCUCGGGUGCCAA,2.17
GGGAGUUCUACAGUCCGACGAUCGAAAACCUGUUAUUACCUGUGUGCUUUUCACUUGGUUGUUCAUGAACUGCAGAGGGGGCUCCUUGAGUUCUGUCUGCACAAGAAACUGCACUGCAAGUUUUGAAGGAGUCUGGAAUUCUCGGGUGCCAA,0.327
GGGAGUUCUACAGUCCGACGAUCAAAUGCAGCUCCUUUCUGUGCUGGGCUGGAAAGACUGGAGCGCUGCCCCGAGGAUCUACGGCCUUGGUUGGGAGUUGUGCUCCUUGCAGCAGGGAGUGAUGAAAUGGUGAUGGAAUUCUCGGGUGCCAA,0.654
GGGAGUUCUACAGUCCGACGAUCCUCAAGAAGACUGACCGGUACGGGACACUCGAGGCUUUGAAUGGGACACCCUAUUCUGCCUUUUUUGAUUUUUUUCCCCUGAAUUAUUCUUUUUUACAACCCUUGUCCUUUGGAAUUCUCGGGUGCCAA,0.7
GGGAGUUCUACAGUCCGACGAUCCACUGGUGAAUAGGGAUUAAUGAAUGGGAAGAGUUCAGUCAGACCAGUAAGCCCUUCUGGGUUUGAGUGUGUUCCCAUGUAGGAGGUAAAACCAAUUCUGGAAGCAUCUAUGGAAUUCUCGGGUGCCAA,1.13

# Block 3
# Target: RING finger protein unkempt homolog, zinc fingers 1-6, SBP tag (UNK, Homo sapiens, UniProt Q9C0B0, residues 30-357)
# UniProt Q9C0B0, sequence (30-357, looked up): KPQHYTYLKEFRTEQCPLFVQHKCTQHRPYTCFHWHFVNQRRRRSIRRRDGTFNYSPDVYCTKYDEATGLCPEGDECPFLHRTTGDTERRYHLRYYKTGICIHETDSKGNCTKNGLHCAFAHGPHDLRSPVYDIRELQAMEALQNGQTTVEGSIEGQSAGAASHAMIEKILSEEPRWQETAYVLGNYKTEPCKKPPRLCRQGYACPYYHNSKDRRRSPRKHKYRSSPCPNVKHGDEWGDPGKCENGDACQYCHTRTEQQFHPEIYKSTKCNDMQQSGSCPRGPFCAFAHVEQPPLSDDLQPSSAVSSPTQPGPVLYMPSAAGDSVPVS
# Technique: RNA Bind-n-Seq
# Form: RNA
# Medium: in vitro
# Tested at: 100 nM
# Setting: RNA with constant flanks, vertebrate orthologous sites, ends assumed
# Relative to: input RNA pool
# Direction: higher = stronger binding
Oligonucleotide,bound/input enrichment [ratio]
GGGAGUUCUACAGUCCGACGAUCUAAUGCAAUGGUUGAAGGCUCUGAGCUCAAAAAGGUUCGGUCCAACUCUAGAGUAUAUCACCGAUACUUUCUUUUAGAUGCAGAUAUGCAGUCCCUGCAUUGGGAACCUUCAAAGAAGGACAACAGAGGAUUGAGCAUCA,0.424
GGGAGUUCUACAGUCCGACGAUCACAAUAGCUUCUGCUUCACUAAGAGCGUAAAAAUAGUCCCACAAAUAUAAAACUCCUAAAGAGCUAUUUUUUAAAUAAAAUGUUUAAAUUUGAUAAAUCACUUGAUGCCACAACACAACCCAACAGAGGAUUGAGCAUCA,0.902
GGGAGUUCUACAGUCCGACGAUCCAGCUGAUUCACUCAUCGGGAGAGCUGCACAUAUAGCUGUUCUUGAUUCCGAGAUAUUUUUAGAGAAGUUUUUCCUGGUUGCUGCCCUCAAAUAUUUCCAGUAGAACCGAAGCAUCAUUACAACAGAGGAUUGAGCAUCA,1.25
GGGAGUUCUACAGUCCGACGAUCAUUGUGAUAGAGGGGCAAUAUUGAGUAGUAUUCUUGUCUUUAUCUUUUGUCCCCAAAACCUAGCUUUCUUUUUAAAAUUUCACUACCCUUGAAAUUCGUAUUUCCAGUUUCCACAUUGUUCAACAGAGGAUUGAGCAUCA,7.41
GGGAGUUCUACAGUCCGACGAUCGUCCUUUCGCACGGUUCCCGGCCAGGGUCGAGGACCGGAUGUUUCACUGAGGACCCGCGUUUCAAACAGUUUUUUAAAUUGUUGUACAGGAAGAGAUGUGACGAAAACAGCAUCUCGAAGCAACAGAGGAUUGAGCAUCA,0.203
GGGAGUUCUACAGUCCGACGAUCAUAAUCACUCUAAUUGUAAUCUGAAUAAAGUGUAACAUUGUGUAGCCUUUUUGUAUAAAAUAGACAAAUAGAAAAUGGUCCAAUUAGUUUCCUUUUUAAUAUGCUUAAAAUAAGCAGGUGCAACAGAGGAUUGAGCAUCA,0.775
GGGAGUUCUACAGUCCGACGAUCCUGAAUUAGAGGGCAAUAUAUGUUUCAUAAAGAAGAGUCUUUAUAAUUUUGUUUGUCAGAUAGUAUUUUGGAAUUUGUAUAAUGAGGAUGUUUAGAAGCCAUAUAAGUGGCUUUUUUUAACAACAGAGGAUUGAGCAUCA,0.427
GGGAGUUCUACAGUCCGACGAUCGGAAAGUUACAGACCAGACUCUGAAAGCAGGAGUACAGGAUCCUGGUUAUCGUCAUCUUUGAGGAACAGAUGUACACCACUCUUUUCCAGAAGAAGAAGAGAAGGGAGAGAUGAAUCUGCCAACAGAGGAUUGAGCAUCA,0.406

# Block 4
# Target: Hepatocyte nuclear factor 3-alpha (Foxa1, Mus musculus, UniProt P35582, residues 1-468, full length assumed)
# UniProt P35582, sequence (whole entry, looked up): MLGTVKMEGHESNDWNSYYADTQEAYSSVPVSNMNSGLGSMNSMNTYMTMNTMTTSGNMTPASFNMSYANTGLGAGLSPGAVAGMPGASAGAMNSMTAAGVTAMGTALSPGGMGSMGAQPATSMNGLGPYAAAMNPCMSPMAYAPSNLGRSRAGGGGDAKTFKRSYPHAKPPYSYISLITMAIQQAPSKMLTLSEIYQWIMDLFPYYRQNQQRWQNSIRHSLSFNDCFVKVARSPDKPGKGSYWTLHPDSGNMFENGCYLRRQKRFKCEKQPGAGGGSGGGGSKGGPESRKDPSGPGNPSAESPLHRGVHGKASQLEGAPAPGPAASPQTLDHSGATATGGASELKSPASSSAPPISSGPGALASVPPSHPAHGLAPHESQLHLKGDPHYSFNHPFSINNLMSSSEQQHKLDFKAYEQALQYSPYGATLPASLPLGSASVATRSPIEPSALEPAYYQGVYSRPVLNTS
# Technique: EMSA with sequencing
# Form: double-stranded DNA, one strand shown
# Medium: in vitro
# Tested at: 10 and 20 nM
# Setting: whole designed probe, mean of two concentrations, ends assumed
# Relative to: negative control set to 0
# Direction: higher = stronger binding
Oligonucleotide,normalised bound fraction
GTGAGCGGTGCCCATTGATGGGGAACTACATAACTGAACAGTGATTAAATATTGACTAAGAGCCAGGAGTTGACAGCCATTGGCCTCACCCTGGTAAATGCTGATATATGATGCTGAATGTAAATACAGAGCCATCCTCTCAGGGCCATAGTTTTGTTGGTTTTTTTTTTTTTTTTCTGTTGGGAGATGGGGAGCCAGCAAGTTGTAGCTTATGCTTGATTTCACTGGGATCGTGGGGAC,0.284 ratio
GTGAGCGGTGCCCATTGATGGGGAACGAACCTCTCCTTTTTCTAAAGACTTTTATAGGCATTTTTTTTTCTTCTTCTCAGCATGTGAACCAATGTGTAACTCAAATAGATGTTACTTTGCTGTTTACTTAGATTGTTTTAAAAGGCTAGCTGTGTGGAGGAATGAGGAAGGAAGGGAGGCGGGAGTGGCTGGAGTTTTTTTTTTTCTCTGTTGACCTAATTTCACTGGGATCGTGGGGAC,0.348 ratio
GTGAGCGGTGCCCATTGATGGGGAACCCCTTTCAGCTGACGCCGCGCCTGACGGGCCAGCCCAGACGCCGGCCTGCCCGCTGCTAATTACGAGGGCATTGTTGCTTGAGTGCTTTCTGTGTTTACATAGTTGGACAAGTCTCCCTTAATTGTCCAAAAAAAAAAAAAAAAAGGAAAAAGAAAAAGAAAATTACTAATATTTCAGAAAAAGGGCAGGCTGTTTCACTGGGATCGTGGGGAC,0.425 ratio
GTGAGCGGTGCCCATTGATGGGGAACTTGACTTAAGGCTTCCTCCCAGCCCCCTCTCAGCCTCTAGCAACATACAGATGGCGTCATTCAGCACCTTGAATCATTTGGACAGCAGCAAAAGCAATCTAGAAACTCACCAACAGTGAAGCTAAATTAGCTGTCAGGGCTGCAATTGTACAGAATGTGTGGAAGCCAAGAAATAGCACCAGGGCTAAGAAGCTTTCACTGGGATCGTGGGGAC,-0.065 ratio
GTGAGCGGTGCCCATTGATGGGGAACCAGCTGGAATGCCTGGCGGAGGCTCCGGTGTCAAGAGCCTGAGAACCTGAGAACCCACCCGAGGCCCCCGCCAGGCAGCGCCGCCAGCAGATTAAATTACTCTGGGGCCCTATCTCCGCGCCATCGGGCCAGAAAATTGCCCTGGCGGGATCCAGGGAAACTGCGGTTTTTGTTATGATAGCTGGGGCAGGGATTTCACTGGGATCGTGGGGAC,-0.0492 ratio
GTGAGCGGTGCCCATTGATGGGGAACAACAATGCTTCTTAAAATATTCTACCATATTTTAAGAAGCAATTTCTCCAAATATTTTCTAATTGATAATATTTCAGGCTTATACATTTTTATGTTTACTTTGGGGATCACAAGAAAGCTAATCAACTTTTAATTTGTAGAATGTAACAGGGCATATTCACGTAAGTTTATACATACTTTCCTATATTTAATCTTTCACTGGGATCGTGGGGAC,0.448 ratio

# A few entries again (block 4):
Oligonucleotide,normalised bound fraction
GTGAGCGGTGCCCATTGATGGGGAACGAACCTCTCCTTTTTCTAAAGACTTTTATAGGCATTTTTTTTTCTTCTTCTCAGCATGTGAACCAATGTGTAACTCAAATAGATGTTACTTTGCTGTTTACTTAGATTGTTTTAAAAGGCTAGCTGTGTGGAGGAATGAGGAAGGAAGGGAGGCGGGAGTGGCTGGAGTTTTTTTTTTTCTCTGTTGACCTAATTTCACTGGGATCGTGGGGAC,0.348 ratio
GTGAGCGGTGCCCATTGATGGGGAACCCCTTTCAGCTGACGCCGCGCCTGACGGGCCAGCCCAGACGCCGGCCTGCCCGCTGCTAATTACGAGGGCATTGTTGCTTGAGTGCTTTCTGTGTTTACATAGTTGGACAAGTCTCCCTTAATTGTCCAAAAAAAAAAAAAAAAAGGAAAAAGAAAAAGAAAATTACTAATATTTCAGAAAAAGGGCAGGCTGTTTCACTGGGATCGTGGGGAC,0.425 ratio
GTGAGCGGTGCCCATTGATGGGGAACTTGACTTAAGGCTTCCTCCCAGCCCCCTCTCAGCCTCTAGCAACATACAGATGGCGTCATTCAGCACCTTGAATCATTTGGACAGCAGCAAAAGCAATCTAGAAACTCACCAACAGTGAAGCTAAATTAGCTGTCAGGGCTGCAATTGTACAGAATGTGTGGAAGCCAAGAAATAGCACCAGGGCTAAGAAGCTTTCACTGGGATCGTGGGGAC,-0.065 ratio
